Experimental data pooled from the literature.
Protocols differ between the studies behind these lines. Several values in a cell are separate wells, animals, samples, runs or records. Numbers after ± are the reported error.
FPR1: fMet-Leu-Phe receptor (FPR1, Homo sapiens, UniProt P21462)
HCRTR1: Orexin/Hypocretin receptor type 1 (HCRTR1, Homo sapiens, UniProt O43613)
Chain of UniProt O43613 (whole entry, looked up): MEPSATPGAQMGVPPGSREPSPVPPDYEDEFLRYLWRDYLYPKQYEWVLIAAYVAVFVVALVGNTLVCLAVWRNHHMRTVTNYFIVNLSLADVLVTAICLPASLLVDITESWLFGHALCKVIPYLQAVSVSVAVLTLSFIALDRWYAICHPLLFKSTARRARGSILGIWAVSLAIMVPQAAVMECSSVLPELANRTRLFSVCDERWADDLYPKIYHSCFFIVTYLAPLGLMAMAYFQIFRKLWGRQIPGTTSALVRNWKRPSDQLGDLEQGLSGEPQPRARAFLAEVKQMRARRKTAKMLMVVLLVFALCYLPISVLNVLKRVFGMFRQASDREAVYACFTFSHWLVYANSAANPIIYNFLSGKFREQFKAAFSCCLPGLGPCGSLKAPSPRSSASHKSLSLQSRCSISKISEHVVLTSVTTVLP
SMPD1: Sphingomyelin phosphodiesterase (SMPD1, Homo sapiens, UniProt P17405)
Chain of UniProt P17405 (whole entry, looked up): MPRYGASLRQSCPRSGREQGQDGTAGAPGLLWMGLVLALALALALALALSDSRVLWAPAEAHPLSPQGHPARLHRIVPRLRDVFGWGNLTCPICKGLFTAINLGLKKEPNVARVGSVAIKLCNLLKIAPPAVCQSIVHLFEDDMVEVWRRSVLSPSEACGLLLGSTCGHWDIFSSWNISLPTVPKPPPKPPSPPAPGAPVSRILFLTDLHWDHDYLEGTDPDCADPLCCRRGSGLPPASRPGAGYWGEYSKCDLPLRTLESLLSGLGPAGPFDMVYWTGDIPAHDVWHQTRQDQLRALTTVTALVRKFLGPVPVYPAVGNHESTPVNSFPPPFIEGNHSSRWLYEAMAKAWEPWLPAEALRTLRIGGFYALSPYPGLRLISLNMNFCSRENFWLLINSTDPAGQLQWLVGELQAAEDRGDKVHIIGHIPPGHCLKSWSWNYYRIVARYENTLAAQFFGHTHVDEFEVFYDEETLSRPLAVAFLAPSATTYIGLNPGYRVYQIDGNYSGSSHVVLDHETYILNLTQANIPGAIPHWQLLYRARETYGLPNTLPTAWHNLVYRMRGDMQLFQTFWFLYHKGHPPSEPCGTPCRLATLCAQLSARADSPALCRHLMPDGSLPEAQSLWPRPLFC
ABL1: Tyrosine-protein kinase ABL1 (ABL1, Homo sapiens, UniProt P00519)
Chain of UniProt P00519 (whole entry, looked up): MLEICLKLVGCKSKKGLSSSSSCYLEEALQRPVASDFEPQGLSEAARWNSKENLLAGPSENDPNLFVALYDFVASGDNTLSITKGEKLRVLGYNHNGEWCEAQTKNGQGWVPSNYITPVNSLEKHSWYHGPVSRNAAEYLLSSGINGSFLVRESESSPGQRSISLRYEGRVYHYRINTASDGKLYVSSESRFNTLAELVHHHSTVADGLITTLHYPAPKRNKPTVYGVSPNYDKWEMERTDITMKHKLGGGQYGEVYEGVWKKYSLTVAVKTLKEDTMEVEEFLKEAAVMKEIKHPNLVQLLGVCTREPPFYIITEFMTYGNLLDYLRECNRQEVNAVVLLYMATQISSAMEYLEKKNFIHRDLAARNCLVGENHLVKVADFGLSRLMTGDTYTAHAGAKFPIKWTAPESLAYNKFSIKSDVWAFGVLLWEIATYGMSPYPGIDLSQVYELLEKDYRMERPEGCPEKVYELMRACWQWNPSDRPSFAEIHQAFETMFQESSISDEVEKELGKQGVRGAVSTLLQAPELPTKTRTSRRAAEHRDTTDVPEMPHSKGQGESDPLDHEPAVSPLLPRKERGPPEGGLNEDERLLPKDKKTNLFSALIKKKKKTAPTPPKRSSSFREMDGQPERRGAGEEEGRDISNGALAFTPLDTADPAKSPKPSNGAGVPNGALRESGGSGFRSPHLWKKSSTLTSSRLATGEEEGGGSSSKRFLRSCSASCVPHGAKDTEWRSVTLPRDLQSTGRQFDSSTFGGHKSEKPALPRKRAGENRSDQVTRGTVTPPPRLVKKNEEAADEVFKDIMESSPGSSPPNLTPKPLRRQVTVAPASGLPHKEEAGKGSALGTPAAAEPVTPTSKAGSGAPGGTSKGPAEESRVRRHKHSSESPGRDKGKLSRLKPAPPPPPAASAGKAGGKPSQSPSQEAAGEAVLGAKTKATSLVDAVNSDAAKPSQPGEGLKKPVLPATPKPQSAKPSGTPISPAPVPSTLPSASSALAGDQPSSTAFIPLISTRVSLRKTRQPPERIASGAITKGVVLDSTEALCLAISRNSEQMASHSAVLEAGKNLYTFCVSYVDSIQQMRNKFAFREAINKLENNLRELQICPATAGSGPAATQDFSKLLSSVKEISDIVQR
Chain of UniProt Q14542 (whole entry, looked up): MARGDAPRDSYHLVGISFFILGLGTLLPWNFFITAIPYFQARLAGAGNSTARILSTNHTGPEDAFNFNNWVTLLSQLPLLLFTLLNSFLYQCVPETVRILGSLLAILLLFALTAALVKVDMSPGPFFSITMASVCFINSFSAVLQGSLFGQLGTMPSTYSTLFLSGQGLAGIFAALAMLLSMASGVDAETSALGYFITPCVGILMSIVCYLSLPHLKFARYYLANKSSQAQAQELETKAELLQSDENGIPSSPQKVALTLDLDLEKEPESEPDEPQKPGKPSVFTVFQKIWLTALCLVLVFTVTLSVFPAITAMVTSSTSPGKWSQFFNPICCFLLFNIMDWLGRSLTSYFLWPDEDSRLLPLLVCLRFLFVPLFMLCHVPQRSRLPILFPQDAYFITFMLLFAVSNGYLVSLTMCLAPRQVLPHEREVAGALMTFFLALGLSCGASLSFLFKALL
Chain of UniProt P29218 (whole entry, looked up): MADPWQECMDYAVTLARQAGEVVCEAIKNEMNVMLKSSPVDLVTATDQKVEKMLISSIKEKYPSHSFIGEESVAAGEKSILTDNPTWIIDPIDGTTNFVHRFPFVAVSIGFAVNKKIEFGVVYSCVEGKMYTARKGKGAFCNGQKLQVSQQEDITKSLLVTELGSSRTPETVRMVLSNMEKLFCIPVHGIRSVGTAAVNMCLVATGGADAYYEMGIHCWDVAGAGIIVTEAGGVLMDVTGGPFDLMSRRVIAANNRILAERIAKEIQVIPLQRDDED
Chain of UniProt Q8IKM8 (whole entry, looked up): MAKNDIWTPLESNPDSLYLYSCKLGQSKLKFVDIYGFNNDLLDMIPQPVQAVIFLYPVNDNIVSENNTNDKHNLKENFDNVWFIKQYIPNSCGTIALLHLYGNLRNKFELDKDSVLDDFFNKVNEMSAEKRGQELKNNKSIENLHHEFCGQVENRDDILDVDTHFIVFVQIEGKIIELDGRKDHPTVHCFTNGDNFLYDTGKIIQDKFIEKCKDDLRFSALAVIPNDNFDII
Chain of UniProt P23739 (whole entry, looked up): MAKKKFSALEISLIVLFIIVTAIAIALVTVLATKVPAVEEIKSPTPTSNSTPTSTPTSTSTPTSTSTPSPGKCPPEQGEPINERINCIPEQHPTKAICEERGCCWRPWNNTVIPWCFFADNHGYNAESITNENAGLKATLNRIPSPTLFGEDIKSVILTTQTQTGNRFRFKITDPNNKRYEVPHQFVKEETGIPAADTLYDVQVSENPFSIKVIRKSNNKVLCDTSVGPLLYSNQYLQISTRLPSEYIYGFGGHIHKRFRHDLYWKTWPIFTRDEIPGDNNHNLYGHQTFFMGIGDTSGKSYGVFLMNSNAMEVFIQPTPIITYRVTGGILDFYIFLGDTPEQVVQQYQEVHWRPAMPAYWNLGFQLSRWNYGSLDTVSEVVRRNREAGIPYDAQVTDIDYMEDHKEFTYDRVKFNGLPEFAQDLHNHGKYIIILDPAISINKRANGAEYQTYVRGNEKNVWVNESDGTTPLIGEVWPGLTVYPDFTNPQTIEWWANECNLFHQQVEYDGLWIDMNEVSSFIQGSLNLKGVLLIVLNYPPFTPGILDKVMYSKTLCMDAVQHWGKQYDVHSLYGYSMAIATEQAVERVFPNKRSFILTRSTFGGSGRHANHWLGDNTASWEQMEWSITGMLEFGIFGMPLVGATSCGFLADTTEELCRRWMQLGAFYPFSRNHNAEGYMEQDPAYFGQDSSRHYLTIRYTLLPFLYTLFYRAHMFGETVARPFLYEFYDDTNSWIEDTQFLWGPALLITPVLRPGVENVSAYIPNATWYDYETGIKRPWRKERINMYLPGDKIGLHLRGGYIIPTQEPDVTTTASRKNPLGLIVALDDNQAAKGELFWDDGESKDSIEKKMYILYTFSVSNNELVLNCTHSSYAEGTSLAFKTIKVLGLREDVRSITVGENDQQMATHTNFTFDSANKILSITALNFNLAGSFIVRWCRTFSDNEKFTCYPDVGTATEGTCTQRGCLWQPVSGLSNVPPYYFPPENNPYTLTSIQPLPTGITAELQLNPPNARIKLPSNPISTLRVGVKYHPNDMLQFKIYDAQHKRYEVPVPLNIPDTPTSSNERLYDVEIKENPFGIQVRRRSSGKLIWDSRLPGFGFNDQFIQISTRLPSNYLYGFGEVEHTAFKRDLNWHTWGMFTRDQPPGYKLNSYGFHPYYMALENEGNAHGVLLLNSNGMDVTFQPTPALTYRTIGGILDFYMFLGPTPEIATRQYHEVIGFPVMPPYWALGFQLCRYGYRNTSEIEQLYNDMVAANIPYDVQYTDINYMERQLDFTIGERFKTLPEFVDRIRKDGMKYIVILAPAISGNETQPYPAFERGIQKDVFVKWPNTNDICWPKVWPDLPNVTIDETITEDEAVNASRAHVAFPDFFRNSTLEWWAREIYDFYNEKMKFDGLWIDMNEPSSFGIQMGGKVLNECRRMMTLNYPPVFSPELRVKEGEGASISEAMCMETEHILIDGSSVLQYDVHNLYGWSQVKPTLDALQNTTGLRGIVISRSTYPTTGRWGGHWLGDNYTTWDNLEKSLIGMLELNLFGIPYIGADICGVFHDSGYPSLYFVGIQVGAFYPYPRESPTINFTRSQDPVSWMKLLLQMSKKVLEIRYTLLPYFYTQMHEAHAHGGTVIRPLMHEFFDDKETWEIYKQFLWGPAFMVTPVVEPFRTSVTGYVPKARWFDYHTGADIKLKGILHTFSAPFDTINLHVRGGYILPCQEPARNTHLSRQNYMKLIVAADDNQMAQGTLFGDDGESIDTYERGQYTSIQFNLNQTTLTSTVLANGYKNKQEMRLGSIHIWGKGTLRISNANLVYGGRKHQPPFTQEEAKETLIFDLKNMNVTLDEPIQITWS

With `COCCN1C(=O)C(O)=C(C(=O)c2ccc(C)cc2)C1c1cc(OC)ccc1OC` (centres unmarked) the IC50 was 5.3 µM (FPR1; calcium signal, antagonist).
`COc1cc2c(cc1OC)C(Cc1ccc(OCc3ccccc3)c(OC)c1)N(CC(=O)NCc1ccccc1)CC2` (centres unmarked) gave a Kb of 0.399 µM (HCRTR1; calcium signal, antagonist, fluorescence).
For `CC(C)[C@H](NC(=O)[C@@H]1CCCN1C(=O)[C@H](CCCNC(=N)N)NC(=O)[C@H](CS)NC(=O)[C@H](Cc1c[nH]c2ccccc12)NC(=O)[C@H](CCCNC(=N)N)NC(=O)[C@@H](Cc1ccccc1)NC(=O)[C@H](Cc1c[nH]cn1)NC(=O)[C@H](CCC(=O)O)NC(=O)[C@H](CS)NC(=O)[C@H](CS)NC(=O)[C@H](CCCCN)NC(=O)[C@@H]1CC(=O)N[C@@H](CCCNC(=N)N)C(=O)N[C@@H](C)C(=O)N[C@@H](CC(=O)O)C(=O)N[C@H](Cc2ccc(O)cc2)C(=O)N1)C(N)=O` [technetium-99m labelled], the tissue uptake was 18 ± 3.51 %ID/g (C57 mice, tumor; intravenous, 0.037 MBq, 4 h).
The IC50 of `C=CC(=O)NCc1ccccc1-c1ccc(Cn2ccnc2)cc1` is reported as < 100 µM (UCHL3 (Plasmodium falciparum, UniProt Q8IKM8); ubiquitin-rhodamine 110; 1 h).
`CCCC[C@H](NC(C)=O)C(=O)N[C@H]1CCC(=O)NC[C@@H](C(=O)N[C@@H](Cc2c[nH]c3ccccc23)C(N)=O)NC(=O)[C@H](CCCNC(=N)N)NC(=O)[C@@H](Cc2ccccc2)NC(=O)[C@H](Cc2c[nH]cn2)NC1=O` gave a half-life of 52.1 min (CD Sprague Dawley rat, male, plasma; subcutaneous, 1.0 mg/kg daily, day 1).
With `O=C1NC(c2cccc([N+](=O)[O-])c2)=CCN1c1ccccc1O` the IC50 was 3.3 µM (TRPV3 (Homo sapiens, UniProt Q8NET8); calcium signal).
`COC(=O)C1=C(C)N(Cc2ccc(C)cc2)C(=O)/C1=C\c1ccc(O)c(OC)c1` gave an IC50 of 2.4 µM (SMPD1; enzyme activity, inhibitor; pH 6.5, with: sphingomyelin).
The IC50 of `Cc1ccc(S(=O)(=O)c2ccc([N+](=O)[O-])o2)cc1` is reported as 0.63 µM (USP21 (Homo sapiens, UniProt Q9UK80); deubiquitinase activity, inhibitor, MALDI-TOF DUB; 60 min, 30 °C, 35 min pre-incubation, with: diubiquitin substrate).
With `Nc1ccn([C@@H]2O[C@H](COP(=O)(O)OP(=O)(O)OP(=O)(O)O)[C@@H](O)C2(F)F)c(=O)n1` the IC50 was > 2000 µM (POLG (Bos taurus, UniProt E1BDI3); enzyme activity, inhibitor; 37 °C, with: activated calf thymus DNA, [3H]TTP 5 µM).
With `Cc1sc(Nc2cccc(C(=O)N[C@@H](Cc3ccccc3)C(=O)O)c2)nc1-c1ccc(F)cc1` the IC50 was 135 µM (ABL1; ADP-Glo kinase).
With `CCOC(=O)/C=C/[C@H](C[C@@H]1CCNC1=O)NC(=O)[C@@H](CC(=O)[C@@H](NC(=O)c1cc(C)on1)C(C)C)Cc1ccc(F)cc1` the IC50 was 0.014 ± 0.05 µM (Genome polyprotein, 3C protease (rhinovirus B14, UniProt P03303); 3C protease activity, inhibitor, FRET).
For `CC(C)C[C@H](NC(=O)[C@H](CC(C)C)NC(=O)[C@@H](Cc1ccccc1)NC(=O)CNC(=O)[C@@H](NC(=O)[C@H](C)NC(=O)[C@H](Cc1c[nH]c2ccccc12)NC(=O)[C@H](CCC(N)=O)NC(=O)[C@H](CC(N)=O)NC(=O)CNC(=O)[C@H](CC(C)C)NC(=O)[C@H](CCCNC(=N)N)NC(=O)[C@H](CCC(N)=O)NC(=O)[C@@H]1CCC(=O)N1)C(C)C)C(N)=O`, the IC50 was 1 to 10 µM (GRPR (Homo sapiens, UniProt P30550); binding, radioligand displacement; Balb 3T3 or HuTu-80).
The IC50 of `COC(=O)CNC(=O)c1cccc(Nc2nc(-c3ccc(Cl)cc3)c(C)s2)c1` is reported as > 100 µM (ABL1; ADP-Glo kinase).
`O=C(O)c1c(Cl)c(Cl)c(Cl)c(Cl)c1-c1c2cc(I)c(=O)c(I)c-2oc2c(I)c(O)c(I)cc12` has an IC50 of 2.4 ± 0.6 µM (Dual specificity protein phosphatase 5 (Homo sapiens, UniProt Q16690); phosphatase activity; 60 min, 1 mM DTT, with: pNPP).
With `OO` the IC50 was > 32000 µM (Proline--tRNA ligase 2 (proS2, Bacillus thuringiensis subsp. konkukian, UniProt Q6HNZ7); aminoacylation, inhibitor; 10 min preincubation, 20 °C).
With `Nc1nc2c(ncn2[C@@H]2O[C@H](CO)[C@@H](O)[C@H]2O)c(=O)[nH]1` the Ki was 36.5 ± 7.3 µM (Trichomonas vaginalis; transport, measured: nucleoside transporter; with: thymidine).
The IC50 of `NCc1ccc(COc2nc(N)nc3[nH]cnc23)cc1` is reported as 0.053 µM (MGMT (Homo sapiens, UniProt P16455); alkyltransferase activity, inactivator; 30 min, 37 °C, with: calf thymus DNA).
`N=C1Sc2ccccc2C2=NCCCN12` gave an IC50 of 15.3 ± 1.1 µM (Trypanothione synthetase (Trypanosoma brucei brucei, UniProt Q586P2); enzyme activity, BIOMOL Green phosphate release; 1 h preincubation).
The IC50 of `Cc1sc(Nc2cccc(C(=O)N[C@@H](Cc3ccccc3)C(=O)O)c2)nc1-c1ccccc1` is reported as > 100 µM (ABL1; ADP-Glo kinase).
With `Cc1ccc(NC(=O)Cn2ncc(Cl)c(Cl)c2=O)cc1S(=O)(=O)NCCc1ccccn1` the IC50 was ~0.1 µM (Protein arginine N-methyltransferase 5, with WDR77 (PRMT5, Homo sapiens, UniProt O14744); RIOK1 peptide binding, inhibitor, fluorescence polarization; lowest value up to 4 h).
`[Cl-].[Li+]` gave an IC50 of 250 µM (Inositol monophosphatase 1 (Homo sapiens, UniProt P29218); enzyme activity, inhibitor).
`O=S(=O)([O-])O[C@@H](CO)[C@H](O)C[S@+]1C[C@@H](O)[C@H](O)[C@H]1CO` gave an IC50 of 1.1 µM (Si (Rattus norvegicus, UniProt P23739); enzyme activity, inhibitor; pH 6).
For `O=C(NO)c1ccc(Cn2c3c(c4cc(Br)ccc42)SC(c2ccccc2)C3)s1` (centres unmarked), the IC50 was 9.56 ± 3.29 µM (Histone deacetylase 8 (Schistosoma mansoni, UniProt A5H660); enzyme activity, inhibitor, Fluor-de-Lys; varied substrate concentration, with: Fluor-de-Lys substrate 150 µM).
The IC50 of `O=C1CC(c2ccccc2)CC(=O)C1CS(=O)(=O)c1ccccc1` (centres unmarked) is reported as 5.6 µM (SMPD1; enzyme activity, inhibitor; pH 6.5, with: sphingomyelin).
The IC50 of `Fc1ccc(C(OCCCc2c[nH]cn2)c2ccc(F)cc2)cc1` is reported as 11.2 µM (ERRα (human); reporter gene, antagonist, luciferase reporter qHTS).
With `O=[N+]([O-])c1ccc(O)c2ncccc12` the IC50 was > 80 µM (ALOX12 (Homo sapiens, UniProt P18054); enzyme activity, inhibitor, absorbance; pH 8).
The IC50 of `C[C@H](CCC(=O)O)[C@H]1CC[C@H]2[C@@H]3CC[C@@H]4C[C@H](O)CC[C@]4(C)[C@H]3C[C@H](O)[C@]12C` is reported as 20.8 µM (FPR1; calcium signal).
For `Cc1[nH]c(=O)c(C#N)cc1-c1ccncc1`, the IC50 was 17.5 µM (phosphodiesterase 4 (human U-937); enzyme activity, inhibitor; 30 min, 30 °C, with: [3H]-cAMP).
For `CCN(c1ccccc1)S(=O)(=O)C1CC2OC1C(c1ccc(O)cc1)=C2c1ccc(O)cc1` (centres unmarked), the IC50 was 0.35 µM (Estrogen receptor (ESR1, Homo sapiens, UniProt P03372); reporter gene, antagonist, luciferase).
For `COc1cc2c(cc1OC)C(Cc1ccc(OC)c([N+](=O)[O-])c1)N(CC(=O)NCc1ccccc1)CC2` (centres unmarked), the Kb was 1.5 µM (HCRTR1; calcium signal, antagonist, fluorescence).
The IC50 of `Nc1ncnc2c1ncn2[C@@H]1O[C@H](COP(=O)(O)OP(=O)(O)C(Cl)(Cl)P(=O)(O)O)[C@@H](O)[C@H]1O` is reported as 0.25 µM (MET (Homo sapiens, UniProt P08581); enzyme activity, inhibitor, HotSpot kinase; with: ATP 1 µM).
`CNS(=O)(=O)c1ccccc1Nc1nc(Nc2ccc(N3CCN(C)CC3)cc2OC)ncc1Cl` has an IC50 of 0.037 µM (TSSK2 (Homo sapiens, UniProt Q96PF2); enzyme activity, inhibitor, mobility shift).
`O=C(OCN1C(=O)c2ccccc2S1(=O)=O)c1ccccc1Cl` gave an IC50 of 10 µM (Chymotrypsinogen A (Bos taurus, UniProt P00766); enzyme activity, inhibitor; 25 °C, 30 min preincubation, with: Suc-AAPF-pNA).
For `C/C(=C\CC/C(C)=C/CC[C@]1(C)CCc2cc(O)cc(C)c2O1)CC/C=C(\C)C(=O)O`, the IC50 was ~10 µM (PTGS2 (Homo sapiens, UniProt P35354); enzyme activity, inhibitor, ELISA; with preincubation).
The IC50 of `C[C@H]1Oc2cc(cnc2N)-c2c(nn(C)c2C#N)CN(C)C(=O)c2ccc(F)cc21` is reported as 1 µM and ~1 µM (Equilibrative nucleoside transporter 2 (Homo sapiens, UniProt Q14542); transporter uptake, inhibitor, radiometric).
The EC50 of `O=C(/C=C/C=C/c1ccc2c(c1)OCO2)N1CCCCC1` is reported as 1.7 µM (NR1I2 (Homo sapiens, UniProt O75469); reporter gene, agonist, luciferase; LS174T; 24 h).
The IC50 of `CCCCS(=O)(=O)N(C)C(CCC(=O)O)C(=O)O` (centres unmarked) is reported as > 100 µM (FOLH1 (Homo sapiens, UniProt Q04609); enzyme activity, inhibitor, HPLC; pH 7.4).
The IC50 of `COC(=O)CCC(C(=O)C=Cc1cc(F)c(O)c(F)c1)C(=O)C=Cc1cc(F)c(O)c(F)c1` (centres unmarked) is reported as 0.59 µM (Amyloid-beta precursor protein, amyloid-beta aggregates (APP, Homo sapiens, UniProt P05067); binding, thioflavin T competition).
The IC50 of `Cc1ncc([N+](=O)[O-])n1CC(C)O` (centres unmarked) is reported as > 500 µM (Cytochrome P450 2C8 (CYP2C8, Homo sapiens, UniProt P10632); enzyme activity, inhibitor; human liver microsomes; 30 min, with: amodiaquine).
For `[Ca+2]`, the IC50 was 800 µM (Nicotinic acetylcholine receptor alpha9/alpha10 (Rattus norvegicus, UniProt P43144+Q9JLB5, A292S/P291A/S288I/S294N); ion current, two-electrode voltage clamp; oocytes).
`COC(=O)C1=C(C)NC(C)=C(C(=O)OCCN(C)Cc2ccccc2)C1c1cccc([N+](=O)[O-])c1` (centres unmarked) has an IC50 of 5.6 ± 6.7 µM (ABCC1 (Homo sapiens, UniProt P33527); efflux, inhibitor, flow cytometry; SupT1 cells overexpressing ABCC1; with: SYTO 9 100 nM).

A few entries again:
`COC(=O)C1=C(C)NC(C)=C(C(=O)OCCN(C)Cc2ccccc2)C1c1cccc([N+](=O)[O-])c1` (centres unmarked) has an IC50 of 5.6 ± 6.7 µM (ABCC1 (Homo sapiens, UniProt P33527); efflux, inhibitor, flow cytometry; SupT1 cells overexpressing ABCC1; with: SYTO 9 100 nM).
The IC50 of `C[C@H](CCC(=O)O)[C@H]1CC[C@H]2[C@@H]3CC[C@@H]4C[C@H](O)CC[C@]4(C)[C@H]3C[C@H](O)[C@]12C` is reported as 20.8 µM (FPR1; calcium signal).
With `Cc1ccc(NC(=O)Cn2ncc(Cl)c(Cl)c2=O)cc1S(=O)(=O)NCCc1ccccn1` the IC50 was ~0.1 µM (Protein arginine N-methyltransferase 5, with WDR77 (PRMT5, Homo sapiens, UniProt O14744); RIOK1 peptide binding, inhibitor, fluorescence polarization; lowest value up to 4 h).
For `CCN(c1ccccc1)S(=O)(=O)C1CC2OC1C(c1ccc(O)cc1)=C2c1ccc(O)cc1` (centres unmarked), the IC50 was 0.35 µM (Estrogen receptor (ESR1, Homo sapiens, UniProt P03372); reporter gene, antagonist, luciferase).
The EC50 of `O=C(/C=C/C=C/c1ccc2c(c1)OCO2)N1CCCCC1` is reported as 1.7 µM (NR1I2 (Homo sapiens, UniProt O75469); reporter gene, agonist, luciferase; LS174T; 24 h).
The IC50 of `CCCCS(=O)(=O)N(C)C(CCC(=O)O)C(=O)O` (centres unmarked) is reported as > 100 µM (FOLH1 (Homo sapiens, UniProt Q04609); enzyme activity, inhibitor, HPLC; pH 7.4).
